Measurements pooled from the literature.
Target: Ephrin type-A receptor 7 (EPHA7, Homo sapiens, UniProt Q15375)

SMILES | test | setting | how to read | measurement | result
O=C=[N][Ru-4]123([n]4c5ccc(O)cc5c5c6c(c7cc(F)c[n+]1c7c54)C(=O)NC6=O)[S+]1CC[S+]2CC[S+]3CC1 (stereo not drawn) | enzyme activity | 100 nM, human enzyme, with: 10 µM ATP | relative to: untreated | remaining activity | 113%
COc1ccc(NC(=O)Nc2ccc3c(c2)C(=O)N(C(C)CO)CC(C)C(CN(C)Cc2ccc4c(c2)OCO4)O3)cc1 (stereo not drawn) | kinase activity, KinaseProfiler | 0.03 µM, species human | relative to: control | remaining activity | 92%
Nc1ncc2c(n1)-c1c([nH]c3ccc(C4=CCOCC4)cc13)CCC2 | binding, competition with immobilised ligand | 1 µM |  | remaining binding | 100%
Cc1cnc2nc1Nc1cccc(c1)COC/C=C/COCc1cc(ccc1OCCN1CCOCC1)N2 | binding | 0.1 µM |  | remaining binding | 85%
C=CC(=O)N1CCCC(n2c(=O)c3ncccc3n(Cc3ccc(Oc4ccccc4)cc3)c2=O)C1 (stereo not drawn) | cell-free assay, competition with immobilised ligand | 1 µM |  | remaining binding | 88%
COc1c(OCCCN2CCOCC2)ccc2c1N=C(NC(=O)c1cnc(N)nc1)N1CCN=C21 | kinase activity, inhibitor | 1 µM | relative to: untreated control | remaining activity | 101%
COc1c(Cl)cccc1Nc1c(-c2ccncc2C#C[C@@]2(C)CCCN2C(=O)/C=C/CN(C)C)[nH]c2c1C(=O)NCC2 | cell-free assay, competition with immobilised ligand | 3 µM |  | remaining binding | 49%
C=CC(=O)N1Cc2nc(-c3cc(-c4cc(Cl)cnc4Cl)c(F)cc3F)n(-c3ccncn3)c2C1 | cell-free assay | 1 µM |  | inhibition | 0%
O=C(Cc1ccc(OCc2ccccc2)cc1)NC1(C(=O)O)CCN(C(=O)c2ccc(-c3cccc(Cl)c3)cc2)CC1 | enzyme activity, inhibitor | 10 µM |  | activity vs control | 90%
COc1cc(Nc2nc(C)cc(-c3cnn4nc(OC)ccc34)n2)cc(C(F)(F)F)c1 | inhibitor | 1 µM | relative to: control | remaining activity | 77%
C=CC(=O)N1CCc2ccc(-n3c(=O)ccc4cnc5ccc(-c6cnn(C)c6)cc5c43)cc21 | KINOMEscan | 1 µM | relative to: DMSO control | remaining binding | 92%
NC(=O)C[C@H]1CCc2sc3ncnc(O[C@H]4CC[C@H](N5CCOCC5)CC4)c3c21 | enzyme activity, inhibitor | 10 µM |  | inhibition | 8%
